Assay results gathered from unrelated publications.
Each line is one published result; not all experiments were run side by side. No end group written: not given here.
B1: S100A12 (Homo sapiens, UniProt P80511); sequence looked up; chain MTKLEEHLEGIVNIFHQYSVRKGHFDTLSKGELKQLLTKELANTIKNIKDKAVIDEIFQGLDANQDEQVDFQEFISLVAIALKAAHYHTHKE
B2: KIN28/CCL1/TFB3 (yeast); chain 1 MKVNMEYTKEKKVGEGTYAVVYLGCQHSTGRKIAIKEIKTSEFKDGLDMSAIREVKYLQEMQHPNVIELIDIFMAYDNLNLVLEFLPTDLEVVIKDKSILFTPADIKAWMLMTLRGVYHCHRNFILHRDLKPNNLLFSPDGQIKVADFGLARAIPAPHEILTSNVVTRWYRAPELLFGAKHYTSAIDIWSVGVIFAELMLRIPYLPGQNDVDQMEVTFRALGTPTDRDWPEVSSFMTYNKLQIYPPPSRDELRKRFIAASEYALDFMCGMLTMNPQKRWTAVQCLESDYFKELPPPSDPSSIKIRN; chain 2 MTDIQLNGKSTLDTPSATMSAKEKEAKLKSADENNKPPNYKRISDDDLYRHSSQYRMWSYTKDQLQEKRVDTNARAIAYIEENLLKFREAHNLTEEEIKVLEAKAIPLTMEEELDLVNFYAKKVQVIAQHLNLPTEVVATAISFFRRFFLENSVMQIDPKSIVHTTIFLACKSENYFISVDSFAQKAKSTRDSVLKFEFKLLESLKFSLLNHHPYKPLHGFFLDIQNVLYGKVDLNYMGQIYDRCKKRITAALLTDVVYFYTPPQITLATLLIEDEALVTRYLETKFPSREGSQESVPGNEKEEPQNDASTTEKNKEKSTESEEYSIDSAKLLTIIRECKSIIEDCKPPSTEEAKKIAAKNYYCQNPSTLIQKLKRKLNGEDTSSTVEKKQKT; chain 3 MLMDEYEENKDMCPICKTDRYLSPDVKFLVNPECYHRICESCVDRIFSLGPAQCPYKGCDKILRKNKFKTQIFDDVEVEKEVDIRKRVFNVFNKTIDDFNGDLVEYNKYLEEVEDIIYKLDHGIDVAKTEEKLRTYEELNKQLIMNNLERSRTEIESFEQRQKFEKEMKLKKRLLERQIEEEERMNKEWTKKEIVNRLSTTTQDINETIEGVKNTVKLKKSSARRKLEELNRVLKNNPYFNSNVNVQNSRLKDAVPFTPFNGDREAHPRFTLKGSVYNDPFIKDLEHRKEFIASGFNTNYAYERVLTEAFMGLGCVISEEL
B3: SHE2 C14S/C68S/C106S/C180S (Saccharomyces cerevisiae, UniProt P36068); sequence looked up; chain MSKDKDIKVTPGTSELVEQILALLSRYLSSYIHVLNKFISHLRRVATLRFERTTLIKFVKKLRFYNDSVLSYNASEFINEGKNELDPEADSFDKVILPIASMFVKSVETFDLLNYYLTQSLQKEILSKTLNEDLTLTAESILAIDDTYNHFVKFSQWMIESLRIGSNLLDLEVVQFAIKSADEDGTNIGETDNIFLQEILPVNSEEEFQTLSAAWHSILDGKLSALDEEFDVVATKWHDKFGKLKN
B4: LRP1 932-1013 (Homo sapiens, UniProt Q07954); chain SARTCPPNQFSCASGRCIPISWTCDLDDDCGDRSDESASCAYPTCFPLTQFTCNNGRCININWRCDNDNDCGDNSDEAGCSH
B5: DBR1 (Homo sapiens, UniProt Q9UK59); sequence looked up; chain MRVAVAGCCHGELDKIYETLALAERRGPGPVDLLLCCGDFQAVRNEADLRCMAVPPKYRHMQTFYRYYSGEKKAPVLTLFIGGNHEASNHLQELPYGGWVAPNIYYLGLAGVVKYRGVRIGGISGIFKSHDYRKGHFECPPYNSSTIRSIYHVRNIEVYKLKQLKQPIDIFLSHDWPRSIYHYGNKKQLLKTKSFFRQEVENNTLGSPAASELLEHLKPTYWFSAHLHVKFAALMQHQAKDKGQTARATKFLALDKCLPHRDFLQILEIEHDPSAPDYLEYDIEWLTILRATDDLINVTGRLWNMPENNGLHARWDYSATEEGMKEVLEKLNHDLKVPCNFSVTAACYDPSKPQTQMQLIHRINPQTTEFCAQLGIIDINVRLQKSKEEHHVCGEYEEQDDVESNDSGEDQSEYNTDTSALSSINPDEIMLDEEEDEDSIVSAHSGMNTPSVEPSDQASEFSASFSDVRILPGSMIVSSDDTVDSTIDREGKPGGTVESGNGEDLTKVPLKRLSDEHEPEQRKKIKRRNQAIYAAVDDDDDDAA
B6: gp20 R338A/R339A (bacteriophage T4, UniProt P13334); sequence looked up; chain MKFNVLSLFAPWAKMDERNFKDQEKEDLVSITAPKLDDGAREFEVSSNEAASPYNAAFQTIFGSYEPGMKTTRELIDTYRNLMNNYEVDNAVSEIVSDAIVYEDDTEVVALNLDKSKFSPKIKNMMLDEFSDVLNHLSFQRKGSDHFRRWYVDSRIFFHKIIDPKRPKEGIKELRRLDPRQVQYVREIITETEAGTKIVKGYKEYFIYDTAHESYACDGRMYEAGTKIKIPKAAVVYAHSGLVDCCGKNIIGYLHRAVKPANQLKLLEDAVVIYRITRAPDRRVWYVDTGNMPARKAAEHMQHVMNTMKNRVVYDASTGKIKNQQHNMSMTEDYWLQAADGKAVTEVDTLPGADNTGNMEDIRWFRQALYMALRVPLSRIPQDQQGGVMFDSGTSITRDELTFAKFIRELQHKFEEVFLDPLKTNLLLKGIITEDEWNDEINNIKIEFHRDSYFAELKEAEILERRINMLTMAEPFIGKYISHRTAMKDILQMTDEEIEQEAKQIEEESKEARFQDPDQEQEDF
B7: UGT1A9 (Homo sapiens, UniProt O60656); chain GKLLVVPMDGSHWFTMRSVVEKLILRGHEVVVVMPEVSWQLGRSLNCTVKTYSTSYTLEDLDREFKAFAHAQWKAQVRSIYSLLMGSYNDIFDLFFSNCRSLFKDKKLVEYLKESSFDAVFLDPFDNCGLIVAKYFSLPSVVFARGILCHYLEEGAQCPAPLSYVPRILLGFSDAMTFKERVRNHIMHLEEHLLCHRFFKNALEIASEILQTPVTEYDLYSHTSIWLLRTDFVLDYPKPVMPNMIFIGGINCHQGKPLPMEFEAYINASGEHGIVVFSLGSMVSEIPEKKAMAIADALGKIPQTVLWRYTGTRPSNLANNTILVKWLPQNDLLGHPMTRAFITHAGSHGVYESICNGVPMVMMPLFGDQMDNAKRMETKGAGVTLNVLEMTSEDLENALKAVINDKSYKENIMRLSSLHKDRPVEPLDLAVFWVEFVMRHKGAPHLRPAAHDLTWYQYHSLDVIGFLLAVVLTVAFITFKCCAYGYRKCLGKKGRVKKAHKSKTH
B8: VPS5/VPS17 SNX-BAR complex (Saccharomyces cerevisiae); chain 1 MDYEDNLEAPVWDELNHEGDKTQSLVSNSIESIGQISTNEERKDNELLETTASFADKIDLDSAPEWKDPGLSVAGNPQLEEHDNSKADDLINSLAPEQDPIADLKNSTTQFIATRESGGALFTGNANSPLVFDDTIYDANTSPNTSKSISGRRSGKPRILFDSARAQRNSKRNHSLKAKRTTASDDTIKTPFTDPLKKAEKENEFVEEPLDDRNERRENNEGKFTASVEKNILEQVDRPLYNLPQTGANISSPAEVEENSEKFGKTKIGSKVPPTEKAVAFKVEVKDPVKVGELTSIHVEYTVISESSLLELKYAQVSRRYRDFRWLYRQLQNNHWGKVIPPPPEKQSVGSFKENFIENRRFQMESMLKKICQDPVLQKDKDFLLFLTSDDFSSESKKRAFLTGSGAINDSNDLSEVRISEIQLLGAEDAAEVLKNGGIDAESHKGFMSISFSSLPKYNEADEFFIEKKQKIDELEDNLKKLSKSLEMVDTSRNTLAASTEEFSSMVETLASLNVSEPNSELLNNFADVHKSIKSSLERSSLQETLTMGVMLDDYIRSLASVKAIFNQRSKLGYFLVVIENDMNKKHSQLGKLGQNIHSEKFREMRKEFQTLERRYNLTKKQWQAVGDKIKDEFQGFSTDKIREFRNGMEISLEAAIESQKECIELWETFYQTNL; chain 2 MTSAVPYDPYDDLDNNPFAEPQEEDSEPAATTTDGSSSMSEERVGTEQTAASVQDNGTANNIQNGLGEEGNATRSKTSNEHNENQQPSQPSERVILPERSDEKKKYTLLAKVTGLERFGSATGKKENPTIIFDCSTNLPTFRKQQYKNVKKSYEEFHQLFKYLNVAIQESFVPTLPSAYTTFGINSEEDRMKVTRNFQLWFNRLSQDPLIIRNEEVAFFIESDFNTYTPINKSKSLASGLKRKTLKQLAPPYDEITELAEFRPLVKSIYVVSQSLQEKLLRVSRNRKMMVQEENAFGQDFVNLDEHNKLYRRYGKILTAVGDIDSIIATMDMATLYDGLEWIVRDAYAVKEALTNRHFIMRNLVQAQQNSKAKQEQARRFRSRRDINPMKIDEALRQLKAAAKNEQVLTLKLQRITSNMIIERKQWISWYEEWIRSSIKEFTLRKIEYERKKLTLLERVRSDIRKADENGGLSRLGRHAVSNNNSDTSQTLKGDSWTGESNRKSQIPINKIAHTEFDDELFTEDDGYNSQDSDTTSLNARHAASLLGMSTK
B9: CEP192 456-541 (Homo sapiens, UniProt Q8TEP8); chain ESIEKNKDKTDLPQSVVYQNEEGRWVTDLAYYTSFNSKQNLNVSLSDEMNEDFRSGSEAFDLIAQDEEEFNKEHQFIQEENIDAHN
B10: UBTF 670-746 (Homo sapiens, UniProt P17480); sequence looked up; chain TLQSKSESEEDDEEDEDDEDEDEEEEDDENGDSSEDGGDSSESSSEDESEDGDENEEDDEDEDDDEDDDEDEDNESE
B11: LAT 48-233 (Homo sapiens, UniProt O43561-2); pY132/pY171/pY191/pY226, Alexa Fluor 488; sequence looked up; chain GIQFKRPHTVAPWPPAYPPVTSYPPLSQPDLLPIPRSPQPLGGSHRTPSSRRDSDGANSVASYENEEPACEDADEDEDDYHNPGYLVVLPDSTPATSTAAPSAPALSTPGIRDSAFSMESIDDYVNVPESGESAEASLDGSREYVNVSQELHPGAAKTEPAALSSQEAEEVEEEGAPDYENLQELN
Chain of UniProt P40466 (whole entry, looked up): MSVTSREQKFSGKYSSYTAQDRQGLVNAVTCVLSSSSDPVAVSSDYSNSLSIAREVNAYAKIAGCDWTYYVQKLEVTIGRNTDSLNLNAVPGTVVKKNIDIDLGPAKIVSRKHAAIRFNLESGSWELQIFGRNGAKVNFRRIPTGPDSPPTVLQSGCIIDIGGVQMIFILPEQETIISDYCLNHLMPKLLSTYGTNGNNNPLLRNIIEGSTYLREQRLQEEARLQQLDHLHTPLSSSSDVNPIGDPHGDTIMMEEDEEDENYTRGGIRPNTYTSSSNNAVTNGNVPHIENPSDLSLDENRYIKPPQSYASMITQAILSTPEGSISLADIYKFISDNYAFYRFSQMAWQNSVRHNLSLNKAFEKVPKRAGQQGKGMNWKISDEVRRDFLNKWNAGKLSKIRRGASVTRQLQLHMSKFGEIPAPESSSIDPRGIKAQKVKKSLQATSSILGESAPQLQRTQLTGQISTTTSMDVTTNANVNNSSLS
Chain of UniProt O14965 (whole entry, looked up): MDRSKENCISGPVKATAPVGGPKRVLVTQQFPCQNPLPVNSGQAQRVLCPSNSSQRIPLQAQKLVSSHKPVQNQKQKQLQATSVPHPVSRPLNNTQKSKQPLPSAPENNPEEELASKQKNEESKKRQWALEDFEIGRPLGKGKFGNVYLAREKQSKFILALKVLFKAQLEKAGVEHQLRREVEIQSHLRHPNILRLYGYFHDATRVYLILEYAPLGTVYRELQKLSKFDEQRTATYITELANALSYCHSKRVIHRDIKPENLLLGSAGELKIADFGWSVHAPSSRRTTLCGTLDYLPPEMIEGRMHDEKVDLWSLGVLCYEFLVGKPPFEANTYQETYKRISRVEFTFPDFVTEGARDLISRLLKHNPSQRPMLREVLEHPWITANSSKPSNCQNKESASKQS
Chain of UniProt P30533 (whole entry, looked up): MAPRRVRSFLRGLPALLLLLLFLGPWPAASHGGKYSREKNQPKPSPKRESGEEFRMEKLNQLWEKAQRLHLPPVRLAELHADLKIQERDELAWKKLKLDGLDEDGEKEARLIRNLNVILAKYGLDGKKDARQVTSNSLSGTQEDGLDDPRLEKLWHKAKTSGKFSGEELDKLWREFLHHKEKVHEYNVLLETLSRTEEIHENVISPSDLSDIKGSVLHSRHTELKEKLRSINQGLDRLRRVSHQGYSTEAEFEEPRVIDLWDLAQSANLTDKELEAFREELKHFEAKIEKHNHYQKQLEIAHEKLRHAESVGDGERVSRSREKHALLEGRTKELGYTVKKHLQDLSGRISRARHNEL
Chain of UniProt P32325 (whole entry, looked up): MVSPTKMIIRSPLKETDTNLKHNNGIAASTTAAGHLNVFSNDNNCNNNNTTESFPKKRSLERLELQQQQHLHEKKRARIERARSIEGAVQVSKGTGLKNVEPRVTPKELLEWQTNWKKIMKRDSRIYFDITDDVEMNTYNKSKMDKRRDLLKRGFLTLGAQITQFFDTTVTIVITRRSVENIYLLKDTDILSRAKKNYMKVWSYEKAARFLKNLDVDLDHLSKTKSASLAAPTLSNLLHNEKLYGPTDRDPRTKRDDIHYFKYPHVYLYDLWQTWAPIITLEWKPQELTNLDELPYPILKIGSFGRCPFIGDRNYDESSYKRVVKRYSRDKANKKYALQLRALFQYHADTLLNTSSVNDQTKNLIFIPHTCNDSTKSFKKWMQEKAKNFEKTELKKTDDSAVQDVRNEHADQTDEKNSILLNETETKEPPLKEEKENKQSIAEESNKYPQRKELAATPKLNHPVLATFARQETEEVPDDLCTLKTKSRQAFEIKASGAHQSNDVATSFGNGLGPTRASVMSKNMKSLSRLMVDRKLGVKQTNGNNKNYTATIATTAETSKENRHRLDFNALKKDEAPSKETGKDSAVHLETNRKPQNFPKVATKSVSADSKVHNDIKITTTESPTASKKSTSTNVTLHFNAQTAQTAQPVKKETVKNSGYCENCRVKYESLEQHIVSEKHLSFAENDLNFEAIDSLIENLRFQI

HYPK fragment (Homo sapiens) (sequence not shown)  binding (NAA15/NAA10 NAA10 1-160 (Homo sapiens); crystal structure): binds
B1 (S100A12)  binding (AGER extracellular domain 23-342 N81Q (Homo sapiens, UniProt Q15109); ELISA; together with: CaCl2 1 mM): binds
B2 (KIN28/CCL1/TFB3)  binding (SSL2/RAD3/TFB1/TFB2/SSL1/TFB4/TFB5 core TFIIH (Saccharomyces cerevisiae); cross-linking): binds
FKH1 (Saccharomyces cerevisiae, UniProt P40466)  binding (DBF4, phosphorylated (Saccharomyces cerevisiae, UniProt P32325); pull-down; with and without phosphatase): binds
B3 (SHE2 C14S/C68S/C106S/C180S)  binding (MYO4/SHE3/CMD1/MLC1 full length motor (Saccharomyces cerevisiae); electron microscopy): binds
B4 (LRP1 932-1013)  binding (LRPAP1 GST fusion 35-357, iodoacetamide-blocked cysteines (UniProt P30533); pull-down): binds
B5 (DBR1)  binding (AQR/XAB2/ISY1/ZNF830/PPIE complex (Homo sapiens); pull-down): binds
Ac-WKLLITIHD-{βAla-βAla-cellulose} (ITGB3 715-723 (Homo sapiens); reading uncertain; also: C-terminus attached to cellulose; N-acetyl, cellulose-bound; βAla = NCCC(=O)O; cellulose = not defined here)  binding (Myom1 fragment (Mus musculus); peptide array; peptide; 3 h, 22 °C): binds
BACH1 BTB domain C122A, S-nitrosylation treated (Homo sapiens) (sequence not shown)  binding (FBXL17/SKP1 FBXL17 310-701 (Homo sapiens); BLI; apparent): binds
B6 (gp20 R338A/R339A)  binding (GFP/gp17 fusion (bacteriophage T4); co-sedimentation; 30 min, NaCl 100 mM, bound relative to gp23): binds
BACH1 BTB domain C55A, S-nitrosylation treated (Homo sapiens) (sequence not shown)  binding (FBXL17/SKP1 FBXL17 310-701 (Homo sapiens); BLI; apparent): binds
{GST}-GGDSSESSSEDESEDGDENEEDDEDEDDDEDDDEDEDNESE (GST/UBTF 706-746; dephosphorylated; sequence looked up)  binding (TBP/TAF1A/TAF1B/TAF1C (Homo sapiens); pull-down; not purified SL1; with or without phosphatase): binds
UBL4A fragment (Homo sapiens) (sequence not shown)  binding (GET4 (Homo sapiens, UniProt Q7L5D6); pull-down; together with: ATP 2 mM): binds
B7 (UGT1A9)  Vmax (CCc1ccc(O)cc1; steady-state kinetics; pH 7.4, 37 °C): 0.00118 µmol/min/mg
BRD1 fragment (Homo sapiens) (sequence not shown)  binding (histone H4 (Bos taurus, UniProt P62803); pull-down): binds
B8 (VPS5/VPS17 SNX-BAR complex)  binding (VPS26/VPS29/VPS35 D671A/L722A/K726A/R775A (Saccharomyces cerevisiae); fluorescence microscopy; supported membrane tubes; 3 min): binds
B9 (CEP192 456-541)  binding (AURKA kinase domain 123-403, phosphorylated (Homo sapiens, UniProt O14965); ITC): binds
B10 (UBTF 670-746)  binding (TBP/TAF1A/TAF1B/TAF1C (Homo sapiens); pull-down; not purified SL1; with or without phosphatase): binds
B11 (LAT 48-233)  binding (GRB2 fragment, Alexa Fluor 568 label (Homo sapiens); TIRF microscopy; supported lipid bilayers): binds
